# Published values collected from several papers.
# Numbered parts are unrelated; each lists some results of a single study.
# UniProt Q9UQM7, sequence (whole entry, looked up): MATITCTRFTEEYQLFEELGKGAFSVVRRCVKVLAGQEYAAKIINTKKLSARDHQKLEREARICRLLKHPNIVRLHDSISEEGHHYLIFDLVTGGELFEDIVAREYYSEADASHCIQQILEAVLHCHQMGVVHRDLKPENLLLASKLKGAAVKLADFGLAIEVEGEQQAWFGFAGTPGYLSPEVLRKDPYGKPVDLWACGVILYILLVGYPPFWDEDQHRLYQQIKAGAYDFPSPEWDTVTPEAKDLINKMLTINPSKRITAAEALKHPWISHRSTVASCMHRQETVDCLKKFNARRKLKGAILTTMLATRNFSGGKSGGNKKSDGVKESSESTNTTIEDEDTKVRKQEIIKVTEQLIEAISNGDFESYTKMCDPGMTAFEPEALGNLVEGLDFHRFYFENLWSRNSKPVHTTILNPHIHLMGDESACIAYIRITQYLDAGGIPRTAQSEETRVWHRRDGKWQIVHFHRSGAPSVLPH
# UniProt Q16584, sequence (whole entry, looked up): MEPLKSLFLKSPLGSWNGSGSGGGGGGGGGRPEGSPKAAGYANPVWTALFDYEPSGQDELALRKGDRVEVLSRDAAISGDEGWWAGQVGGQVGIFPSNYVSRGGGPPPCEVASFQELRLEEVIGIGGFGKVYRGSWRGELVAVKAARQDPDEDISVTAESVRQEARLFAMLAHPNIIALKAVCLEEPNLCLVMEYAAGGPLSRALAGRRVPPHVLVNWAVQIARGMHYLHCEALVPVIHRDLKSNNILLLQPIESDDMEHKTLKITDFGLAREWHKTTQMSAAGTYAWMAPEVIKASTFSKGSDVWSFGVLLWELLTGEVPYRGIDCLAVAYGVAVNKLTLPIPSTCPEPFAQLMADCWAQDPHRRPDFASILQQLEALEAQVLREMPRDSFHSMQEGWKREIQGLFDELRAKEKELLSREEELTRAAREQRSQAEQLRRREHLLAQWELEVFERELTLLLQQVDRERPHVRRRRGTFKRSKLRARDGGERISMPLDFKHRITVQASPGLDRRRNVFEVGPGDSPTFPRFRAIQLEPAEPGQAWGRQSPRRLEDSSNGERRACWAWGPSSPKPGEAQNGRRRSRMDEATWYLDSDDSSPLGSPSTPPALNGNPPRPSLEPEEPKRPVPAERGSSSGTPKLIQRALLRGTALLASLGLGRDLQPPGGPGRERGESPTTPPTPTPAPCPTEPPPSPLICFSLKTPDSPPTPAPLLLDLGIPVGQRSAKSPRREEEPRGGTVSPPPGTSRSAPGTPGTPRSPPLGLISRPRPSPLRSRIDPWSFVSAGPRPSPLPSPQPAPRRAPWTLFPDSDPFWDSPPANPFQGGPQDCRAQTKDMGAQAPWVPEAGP
# UniProt Q96L34, sequence (whole entry, looked up): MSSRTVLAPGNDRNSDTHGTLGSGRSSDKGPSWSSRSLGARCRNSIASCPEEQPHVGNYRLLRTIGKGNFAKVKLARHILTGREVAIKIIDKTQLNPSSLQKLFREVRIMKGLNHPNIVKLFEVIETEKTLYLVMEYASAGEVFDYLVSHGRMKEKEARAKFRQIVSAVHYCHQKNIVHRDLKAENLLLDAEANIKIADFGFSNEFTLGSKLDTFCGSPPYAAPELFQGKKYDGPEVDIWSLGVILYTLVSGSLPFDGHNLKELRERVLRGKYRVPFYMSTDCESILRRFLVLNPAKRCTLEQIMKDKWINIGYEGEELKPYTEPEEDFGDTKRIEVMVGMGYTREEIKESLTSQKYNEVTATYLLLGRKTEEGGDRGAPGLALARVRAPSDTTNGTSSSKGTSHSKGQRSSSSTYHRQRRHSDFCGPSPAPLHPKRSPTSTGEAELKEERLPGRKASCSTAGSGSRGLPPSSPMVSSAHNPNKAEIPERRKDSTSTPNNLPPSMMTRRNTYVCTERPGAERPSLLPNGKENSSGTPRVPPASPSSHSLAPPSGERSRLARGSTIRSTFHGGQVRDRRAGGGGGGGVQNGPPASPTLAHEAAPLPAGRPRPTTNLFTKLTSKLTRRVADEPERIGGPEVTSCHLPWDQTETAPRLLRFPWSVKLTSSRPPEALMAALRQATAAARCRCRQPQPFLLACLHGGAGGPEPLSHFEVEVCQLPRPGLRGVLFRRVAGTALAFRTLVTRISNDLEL
# UniProt Q8IYL9, sequence (whole entry, looked up): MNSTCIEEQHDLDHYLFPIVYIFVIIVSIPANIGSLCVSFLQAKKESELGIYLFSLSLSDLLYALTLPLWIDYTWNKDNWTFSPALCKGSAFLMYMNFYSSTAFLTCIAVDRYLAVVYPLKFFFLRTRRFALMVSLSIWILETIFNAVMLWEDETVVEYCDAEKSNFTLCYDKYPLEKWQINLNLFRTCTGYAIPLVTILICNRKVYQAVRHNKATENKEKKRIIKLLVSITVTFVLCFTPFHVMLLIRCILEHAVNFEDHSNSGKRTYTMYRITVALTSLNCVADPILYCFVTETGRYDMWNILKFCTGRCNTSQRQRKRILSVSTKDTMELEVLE
# UniProt Q9BXA7, sequence (whole entry, looked up): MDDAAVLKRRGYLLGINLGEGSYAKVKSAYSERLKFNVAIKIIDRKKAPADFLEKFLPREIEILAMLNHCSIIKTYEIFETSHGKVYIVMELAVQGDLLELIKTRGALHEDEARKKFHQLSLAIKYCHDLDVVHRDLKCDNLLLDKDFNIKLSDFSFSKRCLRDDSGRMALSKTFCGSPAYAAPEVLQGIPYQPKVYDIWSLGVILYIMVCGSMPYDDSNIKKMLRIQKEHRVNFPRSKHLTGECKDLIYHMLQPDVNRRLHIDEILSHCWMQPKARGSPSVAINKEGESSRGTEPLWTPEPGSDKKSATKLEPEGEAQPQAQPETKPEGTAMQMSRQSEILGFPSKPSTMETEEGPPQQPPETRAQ
# UniProt P21462, sequence (whole entry, looked up): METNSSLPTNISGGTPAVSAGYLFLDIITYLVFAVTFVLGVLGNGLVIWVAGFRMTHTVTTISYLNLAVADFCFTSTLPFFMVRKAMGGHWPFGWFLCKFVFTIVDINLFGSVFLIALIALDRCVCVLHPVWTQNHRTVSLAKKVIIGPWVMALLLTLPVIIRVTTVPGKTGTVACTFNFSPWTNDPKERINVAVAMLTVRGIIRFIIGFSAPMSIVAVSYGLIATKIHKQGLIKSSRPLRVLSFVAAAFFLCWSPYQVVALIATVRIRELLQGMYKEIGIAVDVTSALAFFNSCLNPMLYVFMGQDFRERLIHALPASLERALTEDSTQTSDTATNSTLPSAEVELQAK
# UniProt P46089, sequence (whole entry, looked up): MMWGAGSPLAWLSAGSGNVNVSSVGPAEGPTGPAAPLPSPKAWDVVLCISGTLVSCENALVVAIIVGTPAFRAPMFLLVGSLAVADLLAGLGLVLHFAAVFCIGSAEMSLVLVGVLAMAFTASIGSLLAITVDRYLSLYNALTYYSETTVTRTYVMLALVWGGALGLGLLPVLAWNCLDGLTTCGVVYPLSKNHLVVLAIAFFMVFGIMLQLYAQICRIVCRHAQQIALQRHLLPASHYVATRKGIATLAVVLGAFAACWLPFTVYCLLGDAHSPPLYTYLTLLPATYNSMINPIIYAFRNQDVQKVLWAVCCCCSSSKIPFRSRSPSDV
# UniProt Q8IWK6, sequence (whole entry, looked up): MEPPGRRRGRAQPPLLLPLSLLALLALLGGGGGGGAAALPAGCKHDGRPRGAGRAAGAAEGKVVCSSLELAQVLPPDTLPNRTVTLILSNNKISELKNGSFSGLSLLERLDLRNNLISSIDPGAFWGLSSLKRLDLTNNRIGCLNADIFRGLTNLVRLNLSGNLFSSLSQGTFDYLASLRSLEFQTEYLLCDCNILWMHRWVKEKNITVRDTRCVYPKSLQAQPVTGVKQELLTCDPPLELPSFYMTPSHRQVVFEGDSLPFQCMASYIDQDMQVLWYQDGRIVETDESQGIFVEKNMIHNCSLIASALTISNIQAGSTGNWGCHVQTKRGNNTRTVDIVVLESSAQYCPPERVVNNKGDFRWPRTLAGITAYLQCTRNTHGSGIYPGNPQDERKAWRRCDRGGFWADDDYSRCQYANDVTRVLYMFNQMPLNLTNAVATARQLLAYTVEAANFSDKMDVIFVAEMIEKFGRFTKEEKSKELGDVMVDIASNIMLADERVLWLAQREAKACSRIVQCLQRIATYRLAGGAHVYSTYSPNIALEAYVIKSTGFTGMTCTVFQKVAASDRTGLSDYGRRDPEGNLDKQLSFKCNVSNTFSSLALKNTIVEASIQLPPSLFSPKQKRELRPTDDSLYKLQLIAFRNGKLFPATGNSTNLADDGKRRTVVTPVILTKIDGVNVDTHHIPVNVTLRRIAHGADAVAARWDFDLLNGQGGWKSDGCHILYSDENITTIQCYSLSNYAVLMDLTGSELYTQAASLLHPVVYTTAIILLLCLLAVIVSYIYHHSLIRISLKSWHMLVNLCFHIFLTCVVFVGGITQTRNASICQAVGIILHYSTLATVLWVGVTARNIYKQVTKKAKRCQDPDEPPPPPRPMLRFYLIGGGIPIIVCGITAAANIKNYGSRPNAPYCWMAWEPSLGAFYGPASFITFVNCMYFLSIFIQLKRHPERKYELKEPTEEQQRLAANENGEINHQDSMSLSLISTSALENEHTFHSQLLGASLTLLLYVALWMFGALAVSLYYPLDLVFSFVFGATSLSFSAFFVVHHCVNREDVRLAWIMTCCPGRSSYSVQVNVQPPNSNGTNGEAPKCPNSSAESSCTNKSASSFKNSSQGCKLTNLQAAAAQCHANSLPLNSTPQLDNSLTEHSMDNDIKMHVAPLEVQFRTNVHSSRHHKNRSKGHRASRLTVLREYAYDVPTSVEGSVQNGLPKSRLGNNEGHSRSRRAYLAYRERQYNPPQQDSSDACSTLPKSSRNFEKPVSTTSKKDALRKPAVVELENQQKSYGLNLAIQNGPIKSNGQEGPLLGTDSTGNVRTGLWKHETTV

# Study 1 — tested at: 1 µM
# SMILES: CCS(=O)(=O)c1cc2cc(C[C@](O)(CC(C)(C)c3ccc(F)cc3C(N)=O)C(F)(F)F)[nH]c2cn1
target,test,remaining binding [%]
"Calcium/calmodulin-dependent protein kinase type 1D (CAMK1D, Homo sapiens, UniProt Q8IU85)","cell-free assay, competition with immobilised ligand",100
"Serine/threonine-protein kinase MRCK beta (CDC42BPB, Homo sapiens, UniProt Q9Y5S2)","cell-free assay, competition with immobilised ligand",100
"Receptor-type tyrosine-protein kinase FLT3 (FLT3, Homo sapiens, UniProt P36888, D835H)","cell-free assay, competition with immobilised ligand",100
"Ankyrin repeat and protein kinase domain-containing protein 1 (ANKK1, Homo sapiens, UniProt Q8NFD2)","cell-free assay, competition with immobilised ligand",89
"Proto-oncogene tyrosine-protein kinase receptor Ret (RET, Homo sapiens, UniProt P07949)","cell-free assay, competition with immobilised ligand",93
"Dual specificity tyrosine-phosphorylation-regulated kinase 1B (DYRK1B, Homo sapiens, UniProt Q9Y463)","cell-free assay, competition with immobilised ligand",88
"Testis-specific serine/threonine-protein kinase 1 (TSSK1B, Homo sapiens, UniProt Q9BXA7)","cell-free assay, competition with immobilised ligand",94
"Serine/threonine-protein kinase MRCK gamma (CDC42BPG, Homo sapiens, UniProt Q6DT37)",competition binding,100
"Mitogen-activated protein kinase kinase kinase 11 (MAP3K11, Homo sapiens, UniProt Q16584)","cell-free assay, competition with immobilised ligand",100
"Tyrosine-protein kinase ABL1, phosphorylated (ABL1, Homo sapiens, UniProt P00519, Q252H)","cell-free assay, competition with immobilised ligand",100
"Mitogen-activated protein kinase kinase kinase 6 (MAP3K6, Homo sapiens, UniProt O95382)","cell-free assay, competition with immobilised ligand",55
"Calcium/calmodulin-dependent protein kinase type II subunit alpha (CAMK2A, Homo sapiens, UniProt Q9UQM7)","cell-free assay, competition with immobilised ligand",94
"Mitogen-activated protein kinase kinase kinase kinase 3 (MAP4K3, Homo sapiens, UniProt Q8IVH8)","cell-free assay, competition with immobilised ligand",83
"MAP/microtubule affinity-regulating kinase 4 (MARK4, Homo sapiens, UniProt Q96L34)","cell-free assay, competition with immobilised ligand",100
"Tyrosine-protein kinase ABL1, phosphorylated (ABL1, Homo sapiens, UniProt P00519, E255K)","binding, competition with immobilised ligand",92
"Mitotic checkpoint serine/threonine-protein kinase BUB1 (BUB1, Homo sapiens, UniProt O43683)","cell-free assay, competition with immobilised ligand",86
"Casein kinase I isoform alpha (CSNK1A1, Homo sapiens, UniProt P48729)","cell-free assay, competition with immobilised ligand",100

# Study 2 — Structure (SMILES): NC(N)=NC(=O)c1nc(Cl)c(N2CCCCCC2)nc1N; observed: β-arrestin recruitment; action: agonist; technique: PRESTO-Tango; tested at: 10 µM; baseline: untreated
target,fold over basal
"Free fatty acid receptor 3 (FFAR3, Homo sapiens, UniProt O14843)",0.65 fold
"fMet-Leu-Phe receptor (FPR1, Homo sapiens, UniProt P21462)",0.57 fold
"Trace amine-associated receptor 1 (TAAR1, Homo sapiens, UniProt Q96RJ0)",0.6 fold
"G-protein coupled receptor 65 (GPR65, Homo sapiens, UniProt Q8IYL9)",0.85
"Prostaglandin E2 receptor EP3 subtype (PTGER3, Homo sapiens, UniProt P43115)",1.39
"Chemerin-like receptor 1 (CMKLR1, Homo sapiens, UniProt Q99788)",0.53
"G-protein coupled receptor 3 (GPR3, Homo sapiens, UniProt P46089)",0.83
"G-protein coupled receptor 151 (GPR151, Homo sapiens, UniProt Q8TDV0)",1.61
"Cysteinyl leukotriene receptor 1 (CYSLTR1, Homo sapiens, UniProt Q9Y271)",0.72
"Adhesion G protein-coupled receptor A3 (ADGRA3, Homo sapiens, UniProt Q8IWK6)",1.05

# Study 3 — species: mouse; sample: microsomes or S9; tested at: 2 µM; time: 0.5 h
Structure (SMILES),remaining compound [%]
c1ccc(-c2ccc3c(C4CCCC4)cncc3c2)cc1,0.593
CCOC(=O)N1CCC(NC(=O)COCC(=O)Nc2ccc(C#N)cc2)CC1,67
O=C(O)c1nccnc1C(=O)Nc1nc(-c2cccs2)n[nH]1,91.2
COc1cnc(CN2CCCCC2c2ccc(CN(C)C)cc2)cc1O (stereo not shown),54
CCCOc1ccc(S(=O)(=O)n2nc(C)cc2C)cc1C,0.0699
COc1ccc(-c2nc(Cc3ccccc3)sc2C)cc1,0.447

# Study 4 — observed: enzyme activity; action: inhibitor; tested at: 10 µM
# Target: Calcium/calmodulin-dependent protein kinase type II subunit alpha (CAMK2A, Homo sapiens, UniProt Q9UQM7)
Compound,inhibition
C/C(=C/C(=O)O)C(=O)O,-6%
C/C=C/c1ccc(O)c(OC)c1,-18%
COc1cc(CCC(=O)O)ccc1O,-18%
C[C@@H]1O[C@@H](O[C@H]2[C@H](O[C@H]3CC[C@@]4(C)[C@@H](CC[C@]5(C)[C@@H]4CC=C4[C@@H]6CC(C)(C)CC[C@]6(C(=O)O)CC[C@]45C)[C@]3(C)CO)OC[C@H](O)[C@@H]2O)[C@H](O)[C@H](O)[C@H]1O,12%
CCCOc1ccc2c(c1)CC[C@@H]1[C@@H]2CC[C@]2(C)[C@@H](OC)CC[C@@H]12,13%
O=C(O)COCCN1CCN([C@H](c2ccccc2)c2ccc(Cl)cc2)CC1,3%
CCCCCCCCCC(C)=O,6%
